Experimental data collected from several papers.
Every numbered part comes from another study and shows a few of its results, in no order. Several values in a cell are separate wells, animals, samples, runs or records.
Sequence of UniProt O95747 (whole entry, looked up): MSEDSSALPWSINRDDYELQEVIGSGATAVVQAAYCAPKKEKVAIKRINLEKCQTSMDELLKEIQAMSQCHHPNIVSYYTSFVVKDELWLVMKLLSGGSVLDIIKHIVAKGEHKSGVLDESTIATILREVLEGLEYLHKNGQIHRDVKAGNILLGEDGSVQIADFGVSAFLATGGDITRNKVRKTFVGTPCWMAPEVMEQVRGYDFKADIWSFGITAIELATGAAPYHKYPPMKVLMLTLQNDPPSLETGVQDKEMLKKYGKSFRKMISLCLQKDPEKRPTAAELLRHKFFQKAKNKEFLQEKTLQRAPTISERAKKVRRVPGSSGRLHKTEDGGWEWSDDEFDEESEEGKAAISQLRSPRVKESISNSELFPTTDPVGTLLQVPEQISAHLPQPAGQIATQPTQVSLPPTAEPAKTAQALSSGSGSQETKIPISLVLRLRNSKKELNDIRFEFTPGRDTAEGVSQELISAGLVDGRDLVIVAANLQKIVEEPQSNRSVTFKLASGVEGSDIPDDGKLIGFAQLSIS
Sequence of UniProt Q13153 (whole entry, looked up): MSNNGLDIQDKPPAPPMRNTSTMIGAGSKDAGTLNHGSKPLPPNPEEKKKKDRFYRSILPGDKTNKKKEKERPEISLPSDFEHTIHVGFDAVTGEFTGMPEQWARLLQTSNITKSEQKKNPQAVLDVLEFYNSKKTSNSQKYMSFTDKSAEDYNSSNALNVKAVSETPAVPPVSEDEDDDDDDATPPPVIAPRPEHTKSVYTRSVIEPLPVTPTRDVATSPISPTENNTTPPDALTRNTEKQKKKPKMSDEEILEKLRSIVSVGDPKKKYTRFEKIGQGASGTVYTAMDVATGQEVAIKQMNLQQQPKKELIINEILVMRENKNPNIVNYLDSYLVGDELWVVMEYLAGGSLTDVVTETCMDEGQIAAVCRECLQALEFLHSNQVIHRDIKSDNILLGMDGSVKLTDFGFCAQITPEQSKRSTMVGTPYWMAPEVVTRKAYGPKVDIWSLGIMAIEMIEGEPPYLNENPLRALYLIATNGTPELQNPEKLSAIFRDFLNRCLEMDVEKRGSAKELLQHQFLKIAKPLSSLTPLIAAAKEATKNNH
Sequence of UniProt Q9NQU5 (whole entry, looked up): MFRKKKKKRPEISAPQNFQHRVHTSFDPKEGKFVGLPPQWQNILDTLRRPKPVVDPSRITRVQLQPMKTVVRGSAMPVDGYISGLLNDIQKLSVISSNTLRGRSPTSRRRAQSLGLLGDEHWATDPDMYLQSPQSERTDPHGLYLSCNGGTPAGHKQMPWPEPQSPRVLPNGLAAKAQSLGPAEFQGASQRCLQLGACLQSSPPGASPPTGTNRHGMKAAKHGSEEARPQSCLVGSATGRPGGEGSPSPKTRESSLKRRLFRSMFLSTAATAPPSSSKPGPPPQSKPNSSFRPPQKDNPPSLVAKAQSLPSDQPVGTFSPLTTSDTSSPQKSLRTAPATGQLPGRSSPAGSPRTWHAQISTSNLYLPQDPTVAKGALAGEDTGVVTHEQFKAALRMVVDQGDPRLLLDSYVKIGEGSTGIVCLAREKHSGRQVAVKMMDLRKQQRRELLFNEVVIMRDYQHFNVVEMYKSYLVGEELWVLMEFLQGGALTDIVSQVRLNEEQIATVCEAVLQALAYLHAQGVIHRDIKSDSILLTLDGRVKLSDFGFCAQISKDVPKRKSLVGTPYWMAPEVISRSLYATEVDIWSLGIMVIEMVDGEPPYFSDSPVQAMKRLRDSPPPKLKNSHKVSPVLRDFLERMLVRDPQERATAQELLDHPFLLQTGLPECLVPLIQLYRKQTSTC
Sequence of UniProt O43318 (whole entry, looked up): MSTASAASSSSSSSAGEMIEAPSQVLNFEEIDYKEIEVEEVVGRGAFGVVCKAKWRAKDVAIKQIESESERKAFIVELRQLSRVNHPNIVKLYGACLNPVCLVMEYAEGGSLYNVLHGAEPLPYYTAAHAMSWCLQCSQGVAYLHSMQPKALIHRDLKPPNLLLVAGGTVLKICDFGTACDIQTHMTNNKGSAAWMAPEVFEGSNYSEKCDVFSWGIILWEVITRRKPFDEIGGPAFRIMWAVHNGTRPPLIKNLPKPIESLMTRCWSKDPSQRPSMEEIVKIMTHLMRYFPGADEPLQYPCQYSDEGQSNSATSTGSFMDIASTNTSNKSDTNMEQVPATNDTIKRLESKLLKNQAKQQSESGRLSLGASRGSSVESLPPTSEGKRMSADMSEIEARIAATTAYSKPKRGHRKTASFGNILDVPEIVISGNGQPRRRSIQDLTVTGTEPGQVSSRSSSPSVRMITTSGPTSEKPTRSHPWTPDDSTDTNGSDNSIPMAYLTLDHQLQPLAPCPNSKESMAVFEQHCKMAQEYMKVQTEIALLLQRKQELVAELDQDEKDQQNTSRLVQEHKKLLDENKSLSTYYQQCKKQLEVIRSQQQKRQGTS

Sample 1
Target: DNA polymerase theta, ATPase domain (POLQ, Homo sapiens, UniProt O75417)
Sequence of UniProt O75417 (whole entry, unmodified, looked up): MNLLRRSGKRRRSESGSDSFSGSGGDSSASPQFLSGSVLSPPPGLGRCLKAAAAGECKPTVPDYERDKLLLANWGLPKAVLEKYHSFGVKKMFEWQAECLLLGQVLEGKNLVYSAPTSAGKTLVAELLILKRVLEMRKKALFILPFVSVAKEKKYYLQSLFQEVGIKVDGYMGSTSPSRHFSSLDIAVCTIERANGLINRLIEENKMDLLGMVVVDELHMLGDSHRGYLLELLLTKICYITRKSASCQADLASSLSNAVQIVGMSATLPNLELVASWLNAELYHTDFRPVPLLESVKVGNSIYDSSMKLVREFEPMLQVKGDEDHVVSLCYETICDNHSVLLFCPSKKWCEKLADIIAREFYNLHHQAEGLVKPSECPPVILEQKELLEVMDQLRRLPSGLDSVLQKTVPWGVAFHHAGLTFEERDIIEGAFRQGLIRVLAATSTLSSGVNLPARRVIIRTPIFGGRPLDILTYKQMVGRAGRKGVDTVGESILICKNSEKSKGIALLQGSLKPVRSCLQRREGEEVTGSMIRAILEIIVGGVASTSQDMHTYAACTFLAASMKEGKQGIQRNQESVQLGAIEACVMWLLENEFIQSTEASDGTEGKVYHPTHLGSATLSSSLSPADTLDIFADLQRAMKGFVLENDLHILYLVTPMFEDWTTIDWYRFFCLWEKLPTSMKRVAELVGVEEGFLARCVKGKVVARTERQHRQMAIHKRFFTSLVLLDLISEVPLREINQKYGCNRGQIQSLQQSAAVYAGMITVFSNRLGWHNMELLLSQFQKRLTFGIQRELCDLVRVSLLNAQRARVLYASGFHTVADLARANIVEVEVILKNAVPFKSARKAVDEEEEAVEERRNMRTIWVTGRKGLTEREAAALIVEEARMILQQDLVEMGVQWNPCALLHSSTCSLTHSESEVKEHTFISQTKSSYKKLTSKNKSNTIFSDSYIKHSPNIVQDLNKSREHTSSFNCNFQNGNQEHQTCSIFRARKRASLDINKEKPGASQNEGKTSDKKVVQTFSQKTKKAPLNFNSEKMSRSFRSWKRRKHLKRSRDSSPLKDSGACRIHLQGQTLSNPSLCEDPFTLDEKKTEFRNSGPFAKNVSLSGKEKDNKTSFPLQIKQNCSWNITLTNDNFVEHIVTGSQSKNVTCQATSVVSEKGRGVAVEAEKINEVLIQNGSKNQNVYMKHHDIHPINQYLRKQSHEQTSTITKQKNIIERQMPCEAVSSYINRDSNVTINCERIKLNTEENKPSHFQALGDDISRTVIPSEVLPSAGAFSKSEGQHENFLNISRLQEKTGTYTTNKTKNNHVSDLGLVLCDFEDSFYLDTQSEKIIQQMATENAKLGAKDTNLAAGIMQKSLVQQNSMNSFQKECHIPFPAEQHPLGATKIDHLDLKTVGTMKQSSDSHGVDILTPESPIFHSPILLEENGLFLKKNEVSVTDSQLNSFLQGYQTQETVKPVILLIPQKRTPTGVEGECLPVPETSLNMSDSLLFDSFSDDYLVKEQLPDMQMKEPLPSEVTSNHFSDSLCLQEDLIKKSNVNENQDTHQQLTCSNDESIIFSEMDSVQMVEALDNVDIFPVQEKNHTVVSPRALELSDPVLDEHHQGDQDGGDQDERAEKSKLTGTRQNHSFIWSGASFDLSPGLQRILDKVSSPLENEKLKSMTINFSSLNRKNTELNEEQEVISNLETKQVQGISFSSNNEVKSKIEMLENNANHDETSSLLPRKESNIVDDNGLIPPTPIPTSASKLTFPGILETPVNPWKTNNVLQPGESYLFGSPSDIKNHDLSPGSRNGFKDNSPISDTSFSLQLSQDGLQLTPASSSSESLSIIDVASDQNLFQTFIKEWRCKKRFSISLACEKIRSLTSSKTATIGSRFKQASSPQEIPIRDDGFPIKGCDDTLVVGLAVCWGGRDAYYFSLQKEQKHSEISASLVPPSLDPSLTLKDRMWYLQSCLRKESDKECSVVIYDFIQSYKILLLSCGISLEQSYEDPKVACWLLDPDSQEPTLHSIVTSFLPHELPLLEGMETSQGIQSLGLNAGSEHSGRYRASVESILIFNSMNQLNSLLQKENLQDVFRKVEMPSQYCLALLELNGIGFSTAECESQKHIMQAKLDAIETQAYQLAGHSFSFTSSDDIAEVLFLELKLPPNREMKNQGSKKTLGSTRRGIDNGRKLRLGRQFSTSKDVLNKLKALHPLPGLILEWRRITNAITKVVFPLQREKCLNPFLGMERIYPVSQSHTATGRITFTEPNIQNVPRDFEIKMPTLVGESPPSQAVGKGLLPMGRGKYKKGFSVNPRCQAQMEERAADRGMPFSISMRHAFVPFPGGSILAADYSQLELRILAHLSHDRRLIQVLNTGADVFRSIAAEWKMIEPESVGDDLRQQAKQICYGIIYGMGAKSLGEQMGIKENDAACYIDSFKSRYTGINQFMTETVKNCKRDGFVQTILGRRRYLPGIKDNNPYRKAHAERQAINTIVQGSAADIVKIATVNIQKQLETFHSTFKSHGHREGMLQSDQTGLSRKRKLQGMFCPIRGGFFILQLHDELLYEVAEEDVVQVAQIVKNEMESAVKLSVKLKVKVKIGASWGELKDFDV
Read-out: enzyme activity
Action: inhibitor
Concentration: 77 µM
Relative to: untreated
Quantity: remaining activity
CN(N=O)c1ccc(O)c(O)c1: 52.4%
CCN(CC)C(=O)c1ccc(C2=CC3(CCNCC3)Oc3cccc(O)c32)cc1: 98%
CCC1(c2ccc(N)cc2)CCC(=O)NC1=O (centres unmarked): 92.1%
NC(=O)CI: 108%
CN(C)CCc1ccc(O)cc1: 94.4%
CNCCc1c[nH]c2ccc(O)cc12: 98.6%
Cc1cccc(C(C)c2c[nH]cn2)c1C (centres unmarked): 103%
C[N+]1(C)CCN(c2ccccc2)CC1: 97.2%

Sample 2
Cell line: mouse MPNST tumor cells
Method: high-content nuclear imaging
Refers to: cell number
Concentration: 10 µM
Time: 12 h
Setting: mean of 2 replicates
Relative to: plate mean
Reading: higher = more cells
Quantity: nuclei count
CCOC(=O)c1ccc(-c2ccc(OC(=O)N(C)Cc3cccc(-c4ccncc4)c3)cc2)cc1: 0.182 z-score
CCCN(CCC)CCc1ccc(OC)c(OCCc2ccccc2)c1: 1.84 z-score
C=C(C)C1CCC(C)=CC1c1c(OC)cc(C)cc1OC (centres unmarked): 1.39 z-score
CN(C)c1ccc(/C=C2\CCCN=C2c2cccnc2)cc1: 0.107 z-score
C=C1CC[C@@]2(O)[C@H]3Cc4ccc(O)c5c4[C@@]2(CCN3CC2CC2)[C@H]1O5: 0.283 z-score and 0.618 z-score
Cc1[nH]c2ccc(Cl)cc2c1C1=CCNCC1: 2.77 z-score
CO[C@H]1CC=C2CCN3CCC4=C(CC(=O)OC4)[C@]23C1: 1.68 z-score
CCCN1C[C@H](CSC)C[C@@H]2c3cccc4[nH]cc(c34)C[C@H]21: 1.09 z-score

Sample 3
SMILES: CC(C)(C)c1cc(C=C(C#N)C#N)cc(Br)c1O
Read-out: enzyme activity
Action: inhibitor
Concentration: 0.5 µM
Quantity: remaining activity
Mitogen-activated protein kinase kinase kinase 7 (MAP3K7, Homo sapiens, UniProt O43318): 87.9%
Homeodomain-interacting protein kinase 3 (HIPK3, Homo sapiens, UniProt Q9H422): 98.2%
Serine/threonine-protein kinase OSR1 (OXSR1, Homo sapiens, UniProt O95747): 98%
Serine/threonine-protein kinase PAK 1 (PAK1, Homo sapiens, UniProt Q13153); relative to: control: 89.9%
Cyclin-dependent kinase 7, with cyclin H (CDK7, Homo sapiens, UniProt P50613): 98.5%
Serine/threonine-protein kinase PAK 6 (PAK6, Homo sapiens, UniProt Q9NQU5); relative to: control: 101%

Sample 4
Cell line: HEK-293T
Read-out: pseudovirus infection
Method: FDA-approved drug library counter-screen
Organism: VSV pseudotyped with VSV-G
Concentration: 10 µM
Time: 16 h
Relative to: vehicle-treated
Quantity: GFP-positive cells
CCn1cc(C(=O)O)c(=O)c2cc(F)c(N3CCNC(C)C3)c(F)c21 (centres unmarked): 100%
CN(CCOc1ccc(CC2SC(=O)NC2=O)cc1)c1ccccn1 (centres unmarked): 98.6%
NC(=O)N[C@@H](CCC(=O)O)C(=O)O: 84.3%
CCC(=O)O[C@]1(C(=O)SCF)[C@H](C)C[C@H]2[C@@H]3C[C@H](F)C4=CC(=O)C=C[C@]4(C)[C@@]3(F)[C@@H](O)C[C@@]21C: 112%
CCOC(=O)CCC(=O)O[C@H]1[C@H](O[C@@H]2[C@@H](C)[C@H](O[C@H]3C[C@@](C)(OC)[C@@H](O)[C@H](C)O3)[C@@H](C)C(=O)O[C@H](CC)[C@@](C)(O)[C@H](O)[C@@H](C)C(=O)[C@H](C)C[C@@]2(C)O)O[C@H](C)C[C@@H]1N(C)C: 99.8%
COc1ncnc(NS(=O)(=O)c2ccc(N)cc2)c1OC: 87.4%
Cc1ccc(Sc2ccccc2N2CCNCC2)c(C)c1: 152%
CN1CCC[C@@H]1Cc1c[nH]c2ccc(CCS(=O)(=O)c3ccccc3)cc12: 91%
N[C@@H](Cc1cc(I)c(Oc2ccc(O)c(I)c2)c(I)c1)C(=O)O: 136%
O=c1[nH]c2ccccc2n1C1CCN(CCCC(c2ccc(F)cc2)c2ccc(F)cc2)CC1: 117%
Cc1cc(-c2ccc(/N=N/c3ccc4c(S(=O)(=O)O)cc(S(=O)(=O)O)c(N)c4c3O)c(C)c2)ccc1/N=N/c1ccc2c(S(=O)(=O)O)cc(S(=O)(=O)O)c(N)c2c1O: 33%
Cc1cc(C2CCCCC2)n(O)c(=O)c1: 54.9%
C[C@]12CC[C@@H]3c4ccc(OC(=O)c5ccccc5)cc4CC[C@H]3[C@@H]1CC[C@@H]2O: 103%
O=C1CCc2cc(OCCCCc3nnnn3C3CCCCC3)ccc2N1: 117%
CC(C(=O)O)c1ccc(-c2ccccc2)c(F)c1 (centres unmarked): 76.7%
O=C(O)Cc1ccccc1Nc1c(Cl)cccc1Cl: 77%
CC(C)(C)NC[C@H](O)COc1nsnc1N1CCOCC1: 96.8%
CC(C)C[C@H](CN)CC(=O)O: 95.2%
CN(C/C=C/C#CC(C)(C)C)Cc1cccc2ccccc12: 94.6%
Nc1nc(F)nc2c1ncn2[C@@H]1O[C@H](COP(=O)(O)O)[C@@H](O)[C@@H]1O: 128%
C[C@]12CC[C@H]3[C@@H](CCC4=CC(=O)CC[C@@H]43)[C@@H]1CC[C@@H]2O: 99.5%
O=C1CCC(N2C(=O)c3ccccc3C2=O)C(=O)N1 (centres unmarked): 98%
Nc1ccn([C@H]2CC[C@@H](CO)O2)c(=O)n1: 114%
CC(C)Cc1ccc(C(C)C(=O)O)cc1 (centres unmarked): 94.3%
O=C(O[C@H]1C[N+]2(CCCOc3ccccc3)CCC1CC2)C(O)(c1cccs1)c1cccs1: 96.9%

Sample 5
Cell line: HaCaT
Concentration: 100 µM
Time: 18 h
Quantity: viability
Nc1nc(N)nc(NC2CC2)n1: 91.5%
COc1ccc(OC)c([C@@H](O)[C@H](C)N)c1: 110%
CCCCC(C#N)(Cn1cncn1)c1ccc(Cl)cc1 (centres unmarked): 64.7%
CCN(CC)C(C)C(=O)c1ccccc1 (centres unmarked): 110%

Single results of other studies
Cc1c(-c2cnccn2)ssc1=S  inhibition (chymotrypsin; enzyme activity; concentration not given): 9.9%
CN(N=O)C(=O)N[C@@H]1[C@@H](O)[C@H](O)[C@@H](CO)O[C@@H]1O  body weight (mice, STZ diabetic neuropathy; dose not given, 3 days after STZ): 35.2 g and 35.6 g and 38.1 g and 31.3 g and 31 g

Some of these lines once more (sample 4):
O=C1CCC(N2C(=O)c3ccccc3C2=O)C(=O)N1 (centres unmarked): 98%
Nc1ccn([C@H]2CC[C@@H](CO)O2)c(=O)n1: 114%
CN(C/C=C/C#CC(C)(C)C)Cc1cccc2ccccc12: 94.6%
COc1ncnc(NS(=O)(=O)c2ccc(N)cc2)c1OC: 87.4%
NC(=O)N[C@@H](CCC(=O)O)C(=O)O: 84.3%
CCn1cc(C(=O)O)c(=O)c2cc(F)c(N3CCNC(C)C3)c(F)c21 (centres unmarked): 100%
O=C1CCc2cc(OCCCCc3nnnn3C3CCCCC3)ccc2N1: 117%
